Measured values from different studies.
Parts stem from different laboratories: compare values within a part only.
Chain of UniProt Q9C0B0 (30-357, looked up): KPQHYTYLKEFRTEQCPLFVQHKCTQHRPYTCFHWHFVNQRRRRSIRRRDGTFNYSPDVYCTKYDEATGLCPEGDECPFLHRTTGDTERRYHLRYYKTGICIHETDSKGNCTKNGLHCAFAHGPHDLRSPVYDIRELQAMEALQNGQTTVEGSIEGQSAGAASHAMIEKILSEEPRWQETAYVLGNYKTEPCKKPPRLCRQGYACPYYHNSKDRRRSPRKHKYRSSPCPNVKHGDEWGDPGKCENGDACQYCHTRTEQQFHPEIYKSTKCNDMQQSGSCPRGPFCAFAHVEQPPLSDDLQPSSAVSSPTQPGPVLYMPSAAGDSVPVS

Sample 1
Target: Ras GTPase-activating protein-binding protein 1, C-terminal RGG region (G3BP1, Homo sapiens, UniProt Q13283)
Chain of UniProt Q13283 (whole entry, looked up): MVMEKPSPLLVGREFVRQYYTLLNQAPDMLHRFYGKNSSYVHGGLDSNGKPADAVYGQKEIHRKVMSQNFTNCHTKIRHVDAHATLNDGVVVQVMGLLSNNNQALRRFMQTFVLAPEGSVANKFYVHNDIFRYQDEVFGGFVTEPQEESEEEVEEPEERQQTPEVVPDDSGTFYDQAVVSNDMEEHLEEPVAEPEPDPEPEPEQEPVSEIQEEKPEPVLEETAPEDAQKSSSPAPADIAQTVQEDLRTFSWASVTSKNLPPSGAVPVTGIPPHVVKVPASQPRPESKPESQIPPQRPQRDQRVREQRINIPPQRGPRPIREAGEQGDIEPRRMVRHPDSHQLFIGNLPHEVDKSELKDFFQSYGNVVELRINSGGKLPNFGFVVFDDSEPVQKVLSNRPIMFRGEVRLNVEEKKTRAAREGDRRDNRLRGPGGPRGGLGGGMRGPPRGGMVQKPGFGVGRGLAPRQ
Technique: RNA Bind-n-Seq
Molecule type: RNA
Sample: in vitro
Tested at: 1 µM
Setting: whole 134-nt RNA, ends assumed
With: 150 mM KCl
Reference: input library
Direction: higher = stronger binding
All sequences stand within: GGGAGUUCUACAGUCCGACGAUC … UGGAAUUCUCGGGUGUCAAGG
| Oligonucleotide | log2 enrichment |
| --- | --- |
| CCUCAAGUCCUGUGCUACACAUCGUAUGUACCGAAUCGGGAGGGGAGGGAGGGAAAGUAUUAUGUUACGCCGUUCGGAUCUGCACUUCCA | 2.58 |
| GUCCUGUGCUACACAUCGUAUGUACCGAAUCGGGAAAGGGUUUUUUUGGGAAAAAGGGAAAGUAUUAUGUUACGCCGUUCGGAUCUGCAC | -0.61 |
| UGUGUGCAUUCCCUGCGCCAAGGGCUUCCCCAGCUCUGAGCAGCUCAAUGCGCACGUGGAGACUCACACGGAGGAAGAGCUGUUCAUCAA | -1.46 |
| CCUGUGCUACACAUCGUAUGUACCGAAUCGGGUUUUUUGGGUUUUUUGGGUUUUUUGGGGAAAGUAUUAUGUUACGCCGUUCGGAUCUGC | -1.45 |
| ACCAUGCAGGUGGGCAUCUUUGGGAAGUGGGGCAAGGGGGGGAUAGGGAGGGGGGUAACACUUUGGUAACAGGUGGUCCCAGGUCGUUUC | 1.97 |
| UAACUUUAGAGGAGGAUCUGAUGGAUAUGGCAGUGGACGUUGAUUUGGGGAUGGCUAUAAUGGGUAUGGAGGAGGACCUGGAGGUGGCAA | -1.1 |
| AAGUCCUGUGCUACACAUCGUAUGUACCGAAUCGGGUUUUUGGGAAAAAGGGUGGGAAAGUAUUAUGUUACGCCGUUCGGAUCUGCACUU | 1.06 |
| UGGGAGGUGGAUUUUGUUUAUUUUUUUAGCUCAUUUCCAGGGGUGGGAAUUUUUUUUUAAUAUGUGUCAUGAAUAAAAUUGUUUUUGAAA | 2.06 |
| GCAGGAAGUAAAAACAAAUGGAAAUGCUUCGGAUAGUGGCAGGGGUGGGGGUUGCUAAGGAAAGAGUGGGAUGGGAGUGGGUAAAGAGUU | 1.1 |
| UCCUGUGCUACACAUCGUAUGUACCGAAUCGGGUUUUUUUGGGUUUUUUUGGGUUUGGGAAAGUAUUAUGUUACGCCGUUCGGAUCUGCA | -0.257 |

Sample 2
Target: Histone acetyltransferase KAT6A, both winged helices, GST fusion (KAT6A, Homo sapiens, UniProt Q92794, residues 1-181)
Technique: protein binding microarray
Molecule type: double-stranded DNA, one strand shown
Sample: in vitro
Tested at: not given
Setting: 8-mer, flanks averaged, mean of 2 arrays, mostly near background
Reference: not given
Direction: higher = stronger binding
Residues (chain): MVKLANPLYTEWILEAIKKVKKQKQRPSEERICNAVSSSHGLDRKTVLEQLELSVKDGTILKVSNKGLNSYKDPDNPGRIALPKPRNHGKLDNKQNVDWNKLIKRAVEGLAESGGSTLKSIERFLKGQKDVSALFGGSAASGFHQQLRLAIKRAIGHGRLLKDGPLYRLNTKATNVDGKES
| Oligonucleotide | E-score |
| --- | --- |
| ATCACCAT | -0.0404 |
| AATCAGTC | 0.0775 |
| GCCCGAGA | 0.111 |
| AAAAATTC | -0.205 |
| CCCAACAC | -0.115 |
| GGAGACTA | -0.0972 |
| ATAAACAG | -0.135 |
| GCAGCTAC | -0.0955 |
| AACCATTG | -0.0443 |
| TACGGGAA | 0.298 |
| ACAGTAGC | -0.0182 |
| GGTAAGGA | 0.011 |
| CCTCGGTC | -0.121 |
| ATCATATA | -0.0347 |
| AGTGGTGC | -0.112 |
| AGCGTCCT | 0.0278 |
| TACTGGGA | 0.00279 |
| ATAGGCTG | -0.0998 |
| ATACCGAA | 0.142 |
| CTAGACGC | 0.0414 |
| CCAGCATC | -0.168 |
| GGTGGCTA | -0.0977 |
| GTACCACA | -0.0685 |
| AAACGGGC | 0.195 |
| TGAGGGCA | -0.157 |

Sample 3
Target: Sal-like protein 4, full length isoform B (SALL4, Homo sapiens, UniProt Q9UJQ4-2, residues 1-616)
Technique: universal PBM
Molecule type: double-stranded DNA, one strand shown
Sample: in vitro
Tested at: not given
Setting: 8-mer, flanks averaged, mean of replicates
Direction: higher = stronger binding
Target sequence (chain): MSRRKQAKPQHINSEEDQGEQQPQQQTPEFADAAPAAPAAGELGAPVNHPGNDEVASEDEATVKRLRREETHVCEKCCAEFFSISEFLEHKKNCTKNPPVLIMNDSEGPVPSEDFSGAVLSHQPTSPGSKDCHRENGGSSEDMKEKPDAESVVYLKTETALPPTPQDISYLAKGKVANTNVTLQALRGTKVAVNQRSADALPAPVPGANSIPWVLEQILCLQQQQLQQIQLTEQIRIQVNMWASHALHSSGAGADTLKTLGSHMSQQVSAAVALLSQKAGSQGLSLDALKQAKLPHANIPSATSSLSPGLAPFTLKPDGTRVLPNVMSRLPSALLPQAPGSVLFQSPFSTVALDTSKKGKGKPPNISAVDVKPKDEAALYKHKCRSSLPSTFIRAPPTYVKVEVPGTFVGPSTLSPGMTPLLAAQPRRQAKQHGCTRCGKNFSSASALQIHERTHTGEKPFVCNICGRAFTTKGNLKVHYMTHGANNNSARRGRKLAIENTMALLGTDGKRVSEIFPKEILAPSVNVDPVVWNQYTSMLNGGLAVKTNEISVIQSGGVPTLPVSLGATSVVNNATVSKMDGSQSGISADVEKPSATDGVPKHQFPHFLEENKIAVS
| Oligonucleotide | E-score |
| --- | --- |
| AATTGACA | 0.143 |
| CACTGGGA | -0.157 |
| CTTGACCA | 0.014 |
| ACCGCAGT | -0.0988 |
| CACTCAGA | 0.0143 |
| ATCGGCGA | -0.172 |
| TCTACACA | 0.0374 |
| ATCCCGTC | -0.172 |
| TATGCCGA | 0.0389 |
| AGCGTACC | -0.207 |
| CTGCCGGC | -0.274 |
| CACATGAA | 0.191 |
| CACGGACG | -0.0899 |
| CCGCGTCA | -0.108 |
| CAACATAC | 0.203 |
| GGAAACCC | -0.203 |
| CGCTGTAC | -0.0389 |
| AAGCCACC | -0.101 |
| CAATAAGG | 0.115 |
| ATTAGTGC | 0.162 |
| GCCATCTA | 0.00606 |
| GGTCAGGA | -0.164 |
| AGACCGAA | -0.0104 |
| CTGTCTTA | 0.0675 |
| CAATGACA | 0.184 |

Sample 4
Target: RNA binding protein fox-1 homolog 2, RRM domain, GST-SBP tag (RBFOX2, Homo sapiens, UniProt O43251-10, residues 100-194)
Technique: RNA Bind-n-Seq
Molecule type: RNA
Sample: in vitro
Tested at: 365 nM
Setting: natural RNA segment, single round, ends assumed
Reference: no-protein control
Direction: higher = stronger binding
All sequences stand within: GGGAGUUCUACAGUCCGACGAUC … UGGAAUUCUCGGGUGCCAA
Residues (chain): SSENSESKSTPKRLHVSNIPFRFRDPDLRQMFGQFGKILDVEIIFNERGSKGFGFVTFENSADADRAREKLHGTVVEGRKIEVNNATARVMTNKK
| Oligonucleotide | RBNS enrichment (R) |
| --- | --- |
| ACAUUUUUAUUUUUUGUCUCAGAGGGGAUAAUUGGGAGUGUAUAGUGGAGCAGGGUGGGGCGGGGCUACAGGUUCUGUGUGCACCUGUCACCUCCACUAACGCUGUCUCA | 0.497 |
| AAAUAGCAGCUGUUGUUUCUCUUUGGAAAGUGACAGCAGAAGUUGGUGGCAUGGGACUUUUUGUCCUUGGACACAAACCUGCAGAUCCUAGGAGUAAUAGUUUCCCCCAA | 0.241 |
| ACAGCGCUGGUAUGAGGAGGAGGAACCCCAGCUGCGGUGUGGUCCUGUGCACUACAGUCCAGAGGAAGGUAUCCACUGUGCAGCUGAAACAGGAGGCCACAAACAACCUA | 0.263 |
| GUCUUCAGCUUUAAGUUGCUGGGGCCAGGCCCCGAGGAGGGUUUACUGAGGGGUCUGUAGGUUUGACUAAAAUAAUAAAUGCUAGGCGUGUUUGAUGCGCUUUUAACUUU | 0.544 |
| CCAGCCCCAGCCAGCCCCAGCGGCUCUGGCUGUCCACAAGCCAGGCAGAGAACUCAGGAGCUCUGCACUCAACGCCCCUGCUGCCUCGCCCCCUCCCUGACAGGUGUCUU | 0.405 |
| GAGAAGCCUUUUGCCUGGAUAGGAGGGGGCUCUCCCAGGCAUAGGCUUGUGGCCACUUGCCCAGCACAACUGUGUUUUGUGGGGCGUCUUUUAGGACUUAGCAGAGCUGA | 0.707 |
| UCUGUCAGCAGGUGGCCUUGCCUGGGGAGCCCCAUGUGUGGCCCACCCCACCAGGCCAUCCCCAUACCUUCUGGUUUGAAGGCGCUGACACUGGCAGAGAGGUAAAGGGU | 0.222 |
| CCUAGUUGUUGCAGAAUCCUUCCCCAGGAGCCCCUUCACUCCUGCUGGGGUAGUCACCAGCUUACUGUGGGUACAGGGCUCUUAGCUUGUAUGUGUUCUCCCUUCCUUGA | 0.453 |
| AGCAAGUGAUCAGGUGUCUAUAACAUUUUUCAUUCUCUCUGGAAACAGACUCAGGUUUCUUUGGACCAAAUCCAAAAGAACACAUAGCUGUAACACAGCUGUAGCUGCCU | 0.244 |
| CUCUUGUAUCUAGAUACUUUAAAUAUGGGAGGCCCUUUAACUUAAUUGCCUUUAGUCAACCACUGGAUUUGAAUUUGCAUCAAGUAUUUUAAAUAAUAUUGAAUUUAAAA | 0.721 |
| AGCACUGUUCAGGCUGCCUGUCAUCCCGGGCCUGCCAGCUCCCCUGAGUGAUGAGCACUUCCAAGCACCCCUCUGCCCUUUCUCUGUCCUUAUGCUGUCCCGGCCUCGCC | 0.57 |
| GGAGCCUGCCUGCCUCUGCCGUCCUCAGUUUCCUUUCAUGAGGCUUCUAGCCAAAGAUGAUAAAGGGGGAAAUGGUUUUUAGUGCGUAUAUUAUACUGCCUCUUAGGUGU | 1.63 |

Mixed results
| Oligonucleotide | target | assay | system | conditions | how to read | endpoint | result |
| --- | --- | --- | --- | --- | --- | --- | --- |
| GGGAGUUCUACAGUCCGACGAUCGAAACUCCCCAUUGUCACUGAGAACCACCAAAUCUGACUUUUACAUUUGGUCUCAGAAUUCCGGUUCCUGCCCUGUUGGUUUUUUUUUUUUUUUUUUAAACAGUUUUCAAAAGUUCUUAACAACAGAGGAUUGAGCAUCA | RING finger protein unkempt homolog, zinc fingers 1-6, SBP tag (UNK, Homo sapiens, UniProt Q9C0B0, residues 30-357) | RNA Bind-n-Seq | RNA, in vitro | 100 nM, RNA with constant flanks, ends assumed | reference: input RNA pool, higher = stronger binding | bound/input enrichment | 1.62 ratio |

Excerpt of the above (sample 3):
| Oligonucleotide | E-score |
| --- | --- |
| CACATGAA | 0.191 |
| CACGGACG | -0.0899 |
| CCGCGTCA | -0.108 |
| CAACATAC | 0.203 |
| GGAAACCC | -0.203 |
| CGCTGTAC | -0.0389 |
| AAGCCACC | -0.101 |
| CAATAAGG | 0.115 |
| ATTAGTGC | 0.162 |
